Published values from different studies.
Lines come from different studies, so protocols differ. ± marks the error that the study gave.

N=C(N)NCCC[C@@H]1NC(=O)[C@H](CCCCNC(=O)CCOCCOCCOCCOCCNC(=O)CC[C@H](NC(=O)CCOCCOCCOCCOCCNC(=O)CC[C@H](NC(=O)CN2CCN(CC(=O)O)CCN(CC(=O)O)CCN(CC(=O)O)CC2)C(=O)NCCOCCOCCOCCOCCC(=O)N[C@@H](CCC(=O)NCCOCCOCCOCCOCCC(=O)NCCCC[C@@H]2NC(=O)[C@@H](Cc3ccccc3)NC(=O)[C@H](CC(=O)O)NC(=O)CNC(=O)[C@H](CCCNC(=N)N)NC2=O)C(=O)NCCOCCOCCOCCOCCC(=O)NCCCC[C@@H]2NC(=O)[C@@H](Cc3ccccc3)NC(=O)[C@H](CC(=O)O)NC(=O)CNC(=O)[C@H](CCCNC(=N)N)NC2=O)C(=O)NCCOCCOCCOCCOCCC(=O)NCCCC[C@@H]2NC(=O)[C@@H](Cc3ccccc3)NC(=O)[C@H](CC(=O)O)NC(=O)CNC(=O)[C@H](CCCNC(=N)N)NC2=O)NC(=O)[C@@H](Cc2ccccc2)NC(=O)[C@H](CC(=O)O)NC(=O)CNC1=O [indium-111 labelled]  tissue uptake (female athymic nude mice, eyes; intravenous, 3 µCi, 72 h, U-87 MG glioma xenograft): 0.48 ± 0.06 %ID/g
N=C(N)NCCC[C@H](NC(=O)[C@H](CCCCN)NC(=O)[C@H](CCC(N)=O)NC(=O)CCOCCOCCOCCNC(=O)CN1CCN(CC(=O)O)CCN(CC(=O)O)CCN(CC(=O)O)CC1)C(=O)N[C@@H](CCCCN)C(=O)N[C@@H](CCCNC(=N)N)C(=O)N[C@@H](CCCCN)C(=O)N[C@@H](CCCCN)C(=O)N[C@@H](CO)C(=O)N[C@@H](CCCNC(=N)N)C(=O)N[C@@H](Cc1ccc(O)cc1)C(=O)N[C@@H](CCCCN)C(=O)N[C@@H](CO)C(=O)O [copper-64 labelled]  tissue uptake (C57BL/6 mice, B16-F10 tumour, lung; intravenous, 60 min): 1.73 ± 0.27 %ID/g
CSCC[C@H](NC(=O)[C@H](CC(C)C)NC(=O)[C@H](Cc1c[nH]cn1)NC(=O)CNC(=O)[C@@H](NC(=O)[C@H](C)NC(=O)[C@H](Cc1c[nH]c2ccccc12)NC(=O)[C@H](CCC(N)=O)NC(=O)CNC(=O)[C@H](CO)NC(=O)CNC(=O)CCCCCCCNC(=O)CCC(=O)Nc1ccc(CNC23CNCCNCC(N)(CNCCNC2)CNCCNC3)cc1)C(C)C)C(N)=O [copper-64 labelled]  tissue uptake (female SCID mice, PC-3 xenograft, lung; intravenous, 0.6 MBq, 1 h): 1.24 ± 0.062 %ID/g
N=C(N)NCCC[C@@H]1NC(=O)[C@H](CCCCNC(=O)CCOCCOCCOCCOCCNC(=O)CC[C@H](NC(=O)[C@H](CCCCNC(=O)c2ccc(NN)nc2)NC(=O)c2ccc(NN)nc2)C(=O)NCCOCCOCCOCCOCCC(=O)NCCCC[C@@H]2NC(=O)[C@@H](Cc3ccccc3)NC(=O)[C@H](CC(=O)O)NC(=O)CNC(=O)[C@H](CCCNC(=N)N)NC2=O)NC(=O)[C@@H](Cc2ccccc2)NC(=O)[C@H](CC(=O)O)NC(=O)CNC1=O [technetium-99m labelled]  tissue ratio (female athymic nude mice; intravenous, 1 h, U-87 MG glioma xenograft; relative to: tumour over lung): 3.6 ± 0.13
CSCC[C@H](NC(=O)[C@H](CC(C)C)NC(=O)[C@H](Cc1c[nH]cn1)NC(=O)CNC(=O)[C@@H](NC(=O)[C@H](C)NC(=O)[C@H](Cc1c[nH]c2ccccc12)NC(=O)[C@H](CCC(N)=O)NC(=O)CCCCCCCNC(=O)CCC(=O)Nc1ccc(CNC23CNCCNCC(N)(CNCCNC2)CNCCNC3)cc1)C(C)C)C(N)=O [copper-64 labelled]  tissue uptake (female SCID mice, PC-3 xenograft, kidney; intravenous, 0.6 MBq, 4 h): 8.3 ± 0.558 %ID/g
N=C(N)NCCC[C@@H]1NC(=O)[C@H](CCCCNC(=O)CCOCCOCCOCCOCCNC(=O)CC[C@H](NC(=O)CCOCCOCCOCCOCCNC(=O)[C@H](CCCCNC(=O)c2ccc(NN)nc2)NC(=O)c2ccc(NN)nc2)C(=O)NCCOCCOCCOCCOCCC(=O)NCCCC[C@@H]2NC(=O)[C@@H](Cc3ccccc3)NC(=O)[C@H](CC(=O)O)NC(=O)CNC(=O)[C@H](CCCNC(=N)N)NC2=O)NC(=O)[C@@H](Cc2ccccc2)NC(=O)[C@H](CC(=O)O)NC(=O)CNC1=O [technetium-99m labelled]  tissue uptake (female athymic nude mice, liver; intravenous, 0.1 MBq, 1 h, U-87 MG glioma xenograft): 3.05 ± 0.54 %ID/g
N=C(N)NCCC[C@@H]1NC(=O)[C@H](CCCCNC(=O)CC[C@H](NC(=O)CCOCCOCCOCCOCCNC(=O)CN2CCN(CC(=O)O)CCN(CC(=O)O)CCN(CC(=O)O)CC2)C(=O)NCCCC[C@@H]2NC(=O)[C@@H](Cc3ccccc3)NC(=O)[C@H](CC(=O)O)NC(=O)CNC(=O)[C@H](CCCNC(=N)N)NC2=O)NC(=O)[C@@H](Cc2ccccc2)NC(=O)[C@H](CC(=O)O)NC(=O)CNC1=O [indium-111 labelled]  tissue uptake (female athymic nude mice, eyes; intravenous, 3 µCi, 72 h, U-87 MG glioma xenograft): 0.2 ± 0.04 %ID/g
N=C(N)NCCC[C@@H]1NC(=O)[C@H](CCCCNC(=O)CNC(=O)CNC(=O)CNC(=O)CC[C@H](NC(=O)CNC(=O)CNC(=O)CNC(=O)[C@H](CCCCNC(=O)c2ccc(NN)nc2)NC(=O)c2ccc(NN)nc2)C(=O)NCC(=O)NCC(=O)NCC(=O)NCCCC[C@@H]2NC(=O)[C@@H](Cc3ccccc3)NC(=O)[C@H](CC(=O)O)NC(=O)CNC(=O)[C@H](CCCNC(=N)N)NC2=O)NC(=O)[C@@H](Cc2ccccc2)NC(=O)[C@H](CC(=O)O)NC(=O)CNC1=O [technetium-99m labelled]  tissue ratio (female athymic nude mice; intravenous, 1 h, U-87 MG glioma xenograft; relative to: tumour over lung): 2.52 ± 0.18
N=C(N)NCCC[C@@H]1NC(=O)[C@H](CCCCNC(=O)CC[C@H](NC(=O)CCOCCOCCOCCOCCNC(=O)CC[C@H](NC(=O)CN2CCN(CC(=O)O)CCN(CC(=O)O)CCN(CC(=O)O)CC2)C(=O)NCCOCCOCCOCCOCCC(=O)N[C@@H](CCC(=O)NCCCC[C@@H]2NC(=O)[C@@H](Cc3ccccc3)NC(=O)[C@H](CC(=O)O)NC(=O)CNC(=O)[C@H](CCCNC(=N)N)NC2=O)C(=O)NCCCC[C@@H]2NC(=O)[C@@H](Cc3ccccc3)NC(=O)[C@H](CC(=O)O)NC(=O)CNC(=O)[C@H](CCCNC(=N)N)NC2=O)C(=O)NCCCC[C@@H]2NC(=O)[C@@H](Cc3ccccc3)NC(=O)[C@H](CC(=O)O)NC(=O)CNC(=O)[C@H](CCCNC(=N)N)NC2=O)NC(=O)[C@@H](Cc2ccccc2)NC(=O)[C@H](CC(=O)O)NC(=O)CNC1=O [indium-111 labelled]  tissue uptake (female athymic nude mice, blood; intravenous, 3 µCi, 4 h, U-87 MG glioma xenograft): 0.05 ± 0.02 %ID/g
CC(C)C[C@H](NC(=O)[C@H](Cc1ccc(O)cc1)NC(=O)[C@@H](CCCNC(=N)N)NC(=O)[C@@H](CO)NC(=O)[C@H](Cc1ccccc1)NC(=O)[C@H](CC1CCCCC1)NC(=O)[C@H](CC(=O)O)NC(=O)CCC(C(=O)O)N1CCCN2CCN(CCCN(CC(=O)O)CC2)CC1)C(=O)N[C@@H](Cc1c[nH]c2ccccc12)C(=O)N[C@@H](CO)C(=O)O (stereo partly shown) [copper-64 labelled]  tissue uptake (female NMRI nude mice, brain; 22 h p.i.): 0.1 ± 0.1 %ID/g
